Published values of several laboratories.
Parts stem from different laboratories: compare values within a part only. Substitutions count along the parent as printed.

Block 1 — technique: protein binding microarray; molecule type: double-stranded DNA, one strand shown; medium: in vitro; tested at: not given; reference: not given; direction: higher = stronger binding; quantity: E-score
Target: Histone acetyltransferase KAT6A, winged helix 2, GST fusion (KAT6A, Homo sapiens, UniProt Q92794, residues 85-181)
Notes: 8-mer, flanks averaged, mean of 2 arrays, mostly near background
Construct (chain): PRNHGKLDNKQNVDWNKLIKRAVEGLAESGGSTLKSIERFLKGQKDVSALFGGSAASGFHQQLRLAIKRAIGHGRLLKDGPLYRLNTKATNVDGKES
Oligonucleotide = TAGATTGA; result = 0.0278
Oligonucleotide = ACTAAACT; result = -0.0557
Oligonucleotide = TACTGGAA; result = 0.0324
Oligonucleotide = AATCCTGT; result = 0.0407
Oligonucleotide = AGAACGCG; result = 0.0918
Oligonucleotide = TTGTGAAA; result = 0.085
Oligonucleotide = GCCAATAA; result = 0.00459
Oligonucleotide = AGTTTAAA; result = 0.166
Oligonucleotide = CCGGTCCA; result = -0.0877
Oligonucleotide = AACCCGCA; result = 0.0577
Oligonucleotide = CTAATTCA; result = 0.0209
Oligonucleotide = CACAGTAA; result = 0.0121
Oligonucleotide = AGTGAGGG; result = 0.0817
Oligonucleotide = AATATCGA; result = 0.0609
Oligonucleotide = CCTCGCAA; result = 0.0962
Oligonucleotide = CTTCCTTA; result = -0.164

Block 2 — technique: aptamer microarray, sandwich; molecule type: DNA with 2'F-ANA; medium: in vitro; tested at: 200 nM; added: Cy3 exosite-II aptamer, 400 nM; direction: higher = stronger binding; quantity: mean fluorescence intensity; oligonucleotide: GGTTGGTGTGGTTGG
Target: Prothrombin, mature alpha-thrombin (F2, Homo sapiens, UniProt P00734)
Notes: whole 15-mer aptamer, many near background
Modification = 2'F-ANA at 1 3 4 5 7 8 9 10 11 12 14; result = 47.8 a.u.
Modification = 2'F-ANA at 2 3 4 9 12 14 15; result = 316 a.u.
Modification = 2'F-ANA at 2 4 7 12 13 15; result = 481 a.u.
Modification = 2'F-ANA at 2 5 7 9 10 12 13 15; result = 50.3 a.u.
Modification = 2'F-ANA at 1 2 3 4 5 7 9 10 11 12 15; result = 50 a.u.
Modification = 2'F-ANA at 1 7 8 11 12 13; result = 308 a.u.
Modification = 2'F-ANA at 3 7 8 10 11 13 15; result = 442 a.u.
Modification = 2'F-ANA at 1 2 6 15; result = 177 a.u.
Modification = 2'F-ANA at 1 2 4 7 8 10 12 13 14; result = 46.4 a.u.
Modification = 2'F-ANA at 1 4 10 11 15; result = 64.3 a.u.
Modification = 2'F-ANA at 7 8; result = 780 a.u.
Modification = 2'F-ANA at 1 2 3 4 6 7 8 12 14; result = 88 a.u.
Modification = 2'F-ANA at 1 2 3 4 5 6 7 8 9 11 13 14; result = 56 a.u.
Modification = 2'F-ANA at 1 3 4 5 8 10 11 12 15; result = 62.8 a.u.
Modification = 2'F-ANA at 2 3 4 5 6 8 11 13 14; result = 50.7 a.u.
Modification = 2'F-ANA at 2 3 4 7 8 11 12 14 15; result = 436 a.u.
Modification = 2'F-ANA at 1 5 6 7 8 9 10 11 13 14 15; result = 48.6 a.u.
Modification = 2'F-ANA at 1 3 5 6 8 11 13 14 15; result = 51.2 a.u.
Modification = 2'F-ANA at 1 2 4 8 9 11 12 13 14; result = 64.3 a.u.
Modification = 2'F-ANA at 2 4 5 7 8 10 11 12 13 14; result = 45.4 a.u.
Modification = 2'F-ANA at 1 3 6 7 8 9 14 15; result = 90.8 a.u.
Modification = 2'F-ANA at 3 4 5 6 14; result = 65.4 a.u.
Modification = 2'F-ANA at 2 3 5 6 7 13 14; result = 144 a.u.
Modification = 2'F-ANA at 4 5 6 7 9 10 12 13 15; result = 48.1 a.u.
Modification = 2'F-ANA at 1 3 4 6 7 9 12 13 15; result = 230 a.u.

Block 3 — technique: RNA Bind-n-Seq; molecule type: RNA; medium: in vitro; tested at: 365 nM; reference: no-protein control; direction: higher = stronger binding; quantity: RBNS enrichment (R)
Target: RNA binding protein fox-1 homolog 2, RRM domain, GST-SBP tag (RBFOX2, Homo sapiens, UniProt O43251-10, residues 100-194)
Notes: natural RNA segment, single round, ends assumed
All sequences stand within: GGGAGUUCUACAGUCCGACGAUC … UGGAAUUCUCGGGUGCCAA
Oligonucleotide = CAUCCCAGCCCCCCAAGUGACUGUCUGCCCCGUCCCCGCUCCGCCCGUGACUGGGCAUCCCUCACCAGCUACUUUGACAUGCACACUGCCUGACGCUUCUCCACCCAGUG; result = 0.896
Oligonucleotide = UGUAGCCUUUGAAGGAUGCCCUGUGUAAUUAUUCAGUGCCACAAAUUGAAAGCUUCCAUGUUUAAUGUUAUCCUCUUGCUAUAUAAAUAAAGCAAAUAUAUUUAGGCCAG; result = 0.452
Oligonucleotide = GAAUUCUCAUGUAAUGAGAAGCAAGAAAACUAUGUGUUACUAUUCAUUAUAUUUCAUGUUUGACCAUUUGACUAACCAGCAGGCUUGGAGUUGAAUAGCUUUUGCUUUGC; result = 0.377
Oligonucleotide = GUUGAACUCUCUUCUGUACCUCUGUGCUCUGUGUCUGUGCAUGAAGGCUCAGUCUUUAGAGGCACUCCCUCUAGUUGAUUAGCACUGUCUUCUGUGGAGUUUGGUUCAAA; result = 16.3
Oligonucleotide = ACCACUGGAGGGCUUUGCUCCAGAAUGCAGACCGCUCUGCCAAGGCCUCCAUGUCUGCUUGCAUCUAGCUUGCACAAAGAUAGAUCUUUGUGGUGAGAUCAUCUGUGUGG; result = 1.16
Oligonucleotide = CUAGUAACUGCCUCUGGACUCGGAACAGUGAGUAGGAUCAAAAUAAAUACUGUACAUGGUGGGGAAUGGAAUGCCUGUUGGAGAAGCUUCUAGCCAAUCACGCUCUGGAC; result = 1.17
Oligonucleotide = GGGUUUUGGGAGGGUGGAGGUGGGCAGACGCCCCUGUAAAUACAGCCCUGGGGUGGUCAGAGAGGCCCAUGCCACCCGUCCCCACUUGUGACAUCCCCUUCGACCACCAG; result = 0.389
Oligonucleotide = CACCACAACCACCUGUCCACCCCUUCCUUCCCCACCACUGUCGCUCACCCUGACAUAUGCCCACAUCCAUGCUGGGGCCUGGGUUCAGCCUGGCCUGCCCAGCCCUGGUC; result = 0.961
Oligonucleotide = UGUGGCAGUCUGCAAGUGGAAUUUUGGGAUGGCAGCCCGAGGAACAUCCAGAGUUACUGUGUGACUUGGUCCUGCCAUCGUUAGCUUUGAAAUCACAGGCAUUGGGCUCU; result = 0.682
Oligonucleotide = AAGUGGAAUCUUCUCCCUACAUAAAAUUUUGCAAAGUUGGGGUGCCAGAAUUAAAUUAUGUAUUAAACUCUUGUCUCCAUUUAACACCUUUGCAGUGAAAAACUUUUUGC; result = 0.794
Oligonucleotide = UUUAAAACAAACACAUAACAAUCUUCAGUAAAGUUAUUUGAACCUGUGGUUGACAAUUCUGUAUUGACUAAAGGCAAUAUUGUCACCUGUCUCAUUAAAAAUUAGUUUCC; result = 0.433
Oligonucleotide = CUCUUUUGUUCAGUACGUGUAACUUGAAGCUAAUUUGUACUACUGGAUAUCUGACUGGAGCCGCAGGUACAGAUCUGUAUUGUUCUUACUGAAACACAGCAUGGAAUUAA; result = 1.45

Block 4 — target: CCND3, cyclin fold, Cln2 fusion (human); technique: yeast growth competition, sequencing; medium: yeast; notes: weak parent motif; reference: not given; direction: higher = stronger binding; quantity: normalised enrichment score
Parent: FZR1 docking peptide (human); QDYERRLLRQIVI
Variant = ADYERRLLRQIVI [Q1A]; result = 0.129
Variant = QDYERRLLRQIAI [V12A]; result = 0.148
Variant = QDYARRLLRQIVI [E4A]; result = 0.0868
Variant = QDYERRLFRQIVI [L8F]; result = -0.0311
Variant = QDYERRLLAQIVI [R9A]; result = 0.0366
Variant = QDYEKRLFRQIVI [R5K L8F]; result = -0.105
Variant = QDYEARALRQIVI [R5A L7A]; result = 0.174
Variant = QDYERRALRQIVI [L7A]; result = 0.139
Variant = QDYERRLLRQIVA [I13A]; result = 0.0855
Variant = QDAERRLLRQIVI [Y3A]; result = 0.112

Block 5 — target: ATF7, bZIP domain (human); technique: DHFR protein complementation; medium: yeast; reference: wild-type JUN-FOS pair; direction: higher = stronger binding; quantity: binding fitness
Notes: single substitutions, most at no-binding floor
Parent: JUN, bZIP domain (human); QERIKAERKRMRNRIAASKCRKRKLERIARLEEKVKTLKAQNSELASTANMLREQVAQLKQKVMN; partner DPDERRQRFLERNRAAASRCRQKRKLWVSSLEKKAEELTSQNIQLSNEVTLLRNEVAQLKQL
Variant = E44K; result = -0.989 natural log
Variant = L31C; result = -1.4 natural log
Variant = A46W; result = -1.22 natural log
Variant = V56P; result = -1.5 natural log
Variant = E54H; result = -0.985 natural log
Variant = S43Y; result = -1.03 natural log
Variant = L59R; result = -1.47 natural log
Variant = T48P; result = -1.5 natural log
Variant = A29N; result = -1.06 natural log
Variant = E33N; result = -1.23 natural log
Variant = E32P; result = -1.34 natural log
Variant = T48Y; result = -0.994 natural log
Variant = E54D; result = -1.17 natural log
Variant = R30I; result = -0.917 natural log
Variant = L38V; result = -1.36 natural log
Variant = R30F; result = -0.808 natural log
Variant = K36V; result = -1.13 natural log
Variant = E54S; result = -1.1 natural log
Variant = A29V; result = -1.07 natural log
Variant = S43C; result = -0.99 natural log

Block 6 — technique: DHFR PCA, dose-response; medium: yeast; added: (+)-ABA, dose series; direction: lower = more sensitive; quantity: ABA EC50
Target: ABI1, truncated, D143A, DHFR fusion (Arabidopsis thaliana, UniProt P49597)
Notes: Hill fit, not affinity, not high confidence
Parent: PYL1, truncated, DHFR fusion (Arabidopsis thaliana, UniProt Q8VZS8); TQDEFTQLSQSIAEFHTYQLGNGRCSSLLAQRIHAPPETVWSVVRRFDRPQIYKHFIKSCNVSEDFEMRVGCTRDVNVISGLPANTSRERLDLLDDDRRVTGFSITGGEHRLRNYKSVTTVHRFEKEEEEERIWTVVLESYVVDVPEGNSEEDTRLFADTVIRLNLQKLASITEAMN
Variant = E89A; result = 1430 µM
Variant = P50F; result = 109 µM
Variant = A35D; result = 42.2 µM
Variant = S87W; result = 0.721 µM
Variant = V161K; result = 3.35 µM
Variant = A158E; result = 33.4 µM
Variant = A158D; result = 0.662 µM
Variant = I162R; result = 906 µM
Variant = W41T; result = 0.458 µM
Variant = T101M; result = 13 µM
Variant = E89L; result = 2.64 µM
Variant = H110R; result = 3.43 µM
Variant = L166W; result = 46.6 µM
Variant = I33Y; result = 642 µM
Variant = F157Q; result = 1380 µM
Variant = C60H; result = 754 µM
Variant = V121R; result = 0.143 µM
Variant = S117E; result = 2150 µM
Variant = S80M; result = 0.693 µM
Variant = V40G; result = 4.27 µM
Variant = Y141N; result = 13.3 µM
Variant = P50T; result = 0.534 µM
Variant = S87N; result = 0.0744 µM

Block 7 — technique: universal PBM; molecule type: double-stranded DNA, one strand shown; medium: in vitro; tested at: 600 nM; direction: higher = stronger binding; quantity: E-score
Target: Sal-like protein 4, full length isoform A (SALL4, Homo sapiens, UniProt Q9UJQ4, residues 1-1053)
Sequence of UniProt Q9UJQ4 (whole entry, looked up): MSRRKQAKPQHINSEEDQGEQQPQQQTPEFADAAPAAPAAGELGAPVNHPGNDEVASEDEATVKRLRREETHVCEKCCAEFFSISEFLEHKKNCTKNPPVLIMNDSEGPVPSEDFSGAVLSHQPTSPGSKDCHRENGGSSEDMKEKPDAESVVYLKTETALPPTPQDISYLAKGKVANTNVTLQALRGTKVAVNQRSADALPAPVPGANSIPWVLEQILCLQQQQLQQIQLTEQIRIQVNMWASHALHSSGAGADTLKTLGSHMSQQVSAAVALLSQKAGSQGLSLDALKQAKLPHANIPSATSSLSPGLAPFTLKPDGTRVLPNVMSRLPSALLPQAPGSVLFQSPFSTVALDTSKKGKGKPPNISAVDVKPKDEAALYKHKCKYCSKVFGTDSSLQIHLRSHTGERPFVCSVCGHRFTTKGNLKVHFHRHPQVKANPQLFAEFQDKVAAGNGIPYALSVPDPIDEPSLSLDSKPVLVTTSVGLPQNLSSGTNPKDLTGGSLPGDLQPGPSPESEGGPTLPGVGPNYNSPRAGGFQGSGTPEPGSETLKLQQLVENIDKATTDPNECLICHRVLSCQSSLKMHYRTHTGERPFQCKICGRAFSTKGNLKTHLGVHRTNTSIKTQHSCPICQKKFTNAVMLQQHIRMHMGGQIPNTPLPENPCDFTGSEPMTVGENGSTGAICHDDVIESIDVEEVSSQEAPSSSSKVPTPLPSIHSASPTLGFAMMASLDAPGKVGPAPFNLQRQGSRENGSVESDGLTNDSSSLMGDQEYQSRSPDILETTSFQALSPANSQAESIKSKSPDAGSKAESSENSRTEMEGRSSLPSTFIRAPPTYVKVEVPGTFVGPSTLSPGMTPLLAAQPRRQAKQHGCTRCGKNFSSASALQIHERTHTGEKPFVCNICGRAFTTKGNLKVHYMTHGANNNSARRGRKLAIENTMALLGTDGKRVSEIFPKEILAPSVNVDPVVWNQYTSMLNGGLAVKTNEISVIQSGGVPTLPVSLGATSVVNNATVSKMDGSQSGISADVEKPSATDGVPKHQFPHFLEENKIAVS
Notes: 8-mer, flanks averaged, mean of replicates
Oligonucleotide = CTAGGGAA; result = 0.00534
Oligonucleotide = GCTAGTGA; result = -0.0665
Oligonucleotide = AACCGGAC; result = -0.148
Oligonucleotide = GCTCCGCA; result = -0.195
Oligonucleotide = AGCCACCC; result = -0.259
Oligonucleotide = ATTTACTG; result = 0.27
Oligonucleotide = AAACGCGG; result = -0.0066
Oligonucleotide = CCGCATGC; result = -0.254
Oligonucleotide = CTATCAGA; result = -0.0194
Oligonucleotide = AGTCAAAC; result = -0.125
Oligonucleotide = GAAGATCA; result = 0.0266
Oligonucleotide = TCAGGAGA; result = 0.131
Oligonucleotide = CAGCCCTG; result = -0.379
Oligonucleotide = CTATTCTC; result = 0.0693
Oligonucleotide = AACCGTCA; result = -0.151
Oligonucleotide = AGGCGACG; result = -0.256
Oligonucleotide = CAATGTAA; result = 0.276
Oligonucleotide = CATAGCGA; result = 0.0192
Oligonucleotide = TGGGGACA; result = -0.127
Oligonucleotide = ATTGCAAG; result = 0.15
Oligonucleotide = CGTACGCA; result = -0.197
Oligonucleotide = TAATGCCA; result = 0.165
Oligonucleotide = AAGGTACT; result = 0.082

A few entries again (block 5):
Variant = A29N; result = -1.06 natural log
Variant = E33N; result = -1.23 natural log
Variant = E32P; result = -1.34 natural log
Variant = T48Y; result = -0.994 natural log
Variant = E54D; result = -1.17 natural log
Variant = R30I; result = -0.917 natural log
Variant = L38V; result = -1.36 natural log
Variant = R30F; result = -0.808 natural log
Variant = K36V; result = -1.13 natural log
Variant = E54S; result = -1.1 natural log
Variant = A29V; result = -1.07 natural log
